Assay results pooled from the literature.
Protocols differ between the studies behind these lines. “And” joins repeats or separate records; there may be more than shown. Numbers after ± are the reported error.
GAP50: Glideosome-associated protein 50 (GAP50, Plasmodium falciparum, UniProt Q8I2X3)
TRPM8: Transient receptor potential cation channel subfamily M member 8 (TRPM8, Homo sapiens, UniProt Q7Z2W7)
NADH dehydrogenase [ubiquinone] iron-sulfur protein 7, mitochondrial/NADH dehydrogenase [ubiquinone] iron-sulfur protein 2, mitochondrial/MT-ND1: NADH dehydrogenase [ubiquinone] iron-sulfur protein 7, mitochondrial/NADH dehydrogenase [ubiquinone] iron-sulfur protein 2, mitochondrial/MT-ND1 (Homo sapiens, UniProt O75251+O75306+P03886)
FFAR4: Free fatty acid receptor 4 (FFAR4, Homo sapiens, UniProt Q5NUL3)

| Compound | target | assay | test system | setting | scale | quantity | result |
| --- | --- | --- | --- | --- | --- | --- | --- |
| COc1cc2c(cc1O)[C@@H](Cc1ccc(O)cc1)[N+](C)(C)CC2 | GAP50 | surface plasmon resonance |  |  |  | kon | 1500 M⁻¹ s⁻¹ |
| Nc1ncnc2c1ncn2[C@@H]1O[C@H](COP(=O)(O)CP(=O)(O)OP(=O)(O)O)[C@@H](O)[C@H]1O | P2X purinoceptor 1 (P2RX1, Homo sapiens, UniProt P51575, K136A) | calcium influx |  | 316 nM | relative to: ionomycin response | calcium influx | 94% and 90.5% and 89.1% |
| CCc1cc(NC(=O)COc2cc(Cl)ccc2Cl)n(C2CCOCC2)n1 | Kir3.1/Kir3.2 (Homo sapiens, UniProt P48051+P48549) | thallium flux, activator | HEK293 |  | relative to: standard compound | Emax | 85% |
| O=C1NC(=NO)NC(=O)C12CCc1ccccc12 (centres unmarked) | GABA-A receptor; alpha-1/beta-3/gamma-2 (Homo sapiens, UniProt P14867+P18507+P28472) |  |  | 300 µM |  | Emax | 7% |
| Cc1nc(CSc2nc(SCc3ccc(C(C)C)cc3)nc(=O)[nH]2)cs1 | DNA topoisomerase 2-alpha (TOP2A, Homo sapiens, UniProt P11388) | decatenation |  | 31.25 µM, replicate 1 |  | decatenated DNA | 24% |
| O=[N+]([O-])c1cc2c3ccccc3ccc2c2ccccc12 | Aryl hydrocarbon receptor (Ahr, Rattus norvegicus, UniProt P41738) | immunohistochemistry H-score | Sprague-Dawley rats, mammary tissue | oral gavage, dose not given, 24 h | relative to: vehicle | protein level | decreased |
| Nc1ncnc2n[nH]c(Nc3ccc(F)cc3)c12 | TRPM8 | antagonist | HEK293 | 5 µM | relative to: control | remaining activity | 108 ± 9.02% |
| C=CC(=O)N1CCC(COCC(=O)N2CCN(c3nc(-c4cnc(N)nc4C(F)F)nc(N4CCOC[C@@H]4C)n3)CC2)CC1 | Mitogen-activated protein kinase kinase kinase 12 (MAP3K12, Homo sapiens, UniProt Q12852) | KINOMEscan |  | 1 µM | relative to: DMSO control | remaining binding | 72% |
| C=CC(=O)N1CCC(C(=O)NCC(=O)N2CCN(c3nc(-c4cnc(N)nc4C(F)F)nc(N4CCOCC4)n3)CC2)CC1 | Serine/threonine-protein kinase PAK 2 (PAK2, Homo sapiens, UniProt Q13177) | KINOMEscan |  | 1 µM |  | remaining binding | 100% |
| CC[C@H](C)[C@H](NC(=O)[C@H](C)NC(=O)[C@H](C)NC(=O)[C@@H](NC(=O)[C@H](CC(=O)O)NC(=O)[C@H](CS)NC(=O)[C@H](CC(C)C)NC(=O)[C@H](CCC(=O)O)NC(=O)[C@H](C)NC(=O)[C@H](CC(=O)O)NC(=O)[C@H](CO)NC(=O)[C@H](C)NC(=O)[C@H](CC(N)=O)NC(=O)[C@H](C)NC(=O)[C@H](CC(C)C)NC(=O)[C@H](C)NC(=O)[C@H](CCC(=O)O)NC(=O)[C@H](CCC(=O)O)NC(=O)[C@H](CC(C)C)NC(=O)[C@H](CCC(=O)O)NC(=O)[C@@H]1CCCN1C(=O)[C@H](CCC(=O)O)NC(=O)[C@H](CC(C)C)NC(=O)[C@@H](NC(=O)[C@@H](NC(=O)[C@@H](N)CO)C(C)C)[C@@H](C)O)[C@@H](C)CC)C(=O)N[C@@H](CC(C)C)C(=O)NCC(=O)N[C@@H](CCSC)C(=O)N[C@@H](Cc1c[nH]cn1)C(=O)N[C@H](C(=O)N[C@@H](CC(C)C)C(=O)N[C@@H](CCSC)C(=O)N[C@@H](CO)C(=O)N[C@@H](CC(N)=O)C(=O)N[C@@H](CCC(N)=O)C(=O)O)[C@@H](C)O | Tropomyosin alpha-1 chain (Tpm1, Rattus norvegicus, UniProt P04692, K15N) | circular dichroism, measured: Kd |  | Tpm1.1 K15N mutation | relative to: WT peptide over K15N peptide | affinity decrease | ~2.5 fold |
| O=C(COP(=O)(O)O)[C@@H](O)[C@H](O)[C@H](O)COP(=O)(O)O | Pyruvate kinase PKM (PKM, Homo sapiens, UniProt P14618) | pyruvate kinase activity, activator | A549 cell lysate | together with: AIM |  | concentration reversing inhibition completely | 378 ± 35.1 nM |
| Oc1ccccc1-c1n[nH]cc1-c1ccnc2ccccc12 | Serine/threonine protein kinase YCK2 (YCK2, Candida albicans, UniProt A0A1D8PKB4) | kinase binding, MIB/MS competition | Candida albicans lysate | 10 µM | relative to: DMSO, negative = stronger binding | log2 fold change | -2.01 |
| N[C@@H](CS)C(=O)O | Cysteine--tRNA ligase, cytoplasmic (Homo sapiens, UniProt P49589) | enzyme activity, inhibitor, aminoacylation LC-MS/MS |  | pH 7.6, 37 °C, Mg2+ 15.6 mM, together with: ATP 1 mM, yeast tRNA |  | Ki | 352 µM |
| c1ccc(C(NCc2cccnc2)(c2ccccc2)c2ccccc2)cc1 | Potassium voltage-gated channel subfamily KQT member 1 (KCNQ1, Homo sapiens, UniProt P51787) |  |  | peak and end-pulse currents |  | fraction of electric field sensed | 30 to 40% |
| O=C(ON1C(=O)CCC1=O)c1cc(C(F)(F)F)cc(C(F)(F)F)c1 | CD209 antigen (CD209, Homo sapiens, UniProt Q9NNX6) | binding, grating-coupled interferometry | Man(α1,2)Man-PEG3 chip | 2 h, no Tris |  | Hill slope | 4 |
| Cc1cc(Nc2nc(-c3ccccc3)nc3ccccc23)n[nH]1 | TRPM8 | antagonist | HEK293 | 5 µM | relative to: control | remaining activity | 102 ± 2% |

| Compound | target | assay | test system | setting | scale | quantity | result |
| --- | --- | --- | --- | --- | --- | --- | --- |
| Nc1ncnc2c1ncn2[C@@H]1O[C@H](COP(=O)(O)OP(=O)(O)OP(=O)(O)O)[C@@H](O)[C@H]1O | Hexokinase-3 (HK3, Homo sapiens, UniProt P52790, N221A) | substrate |  | mutant N221A, together with: glucose 0.5 mM |  | Km | 1700 ± 100 µM |
| NC(=O)NOCCCCCCCCCCCC[P+](c1ccccc1)(c1ccccc1)c1ccccc1.O=C([O-])C(F)(F)F | NADH dehydrogenase [ubiquinone] iron-sulfur protein 7, mitochondrial/NADH dehydrogenase [ubiquinone] iron-sulfur protein 2, mitochondrial/MT-ND1 | complex I-dependent respiration, Seahorse XF96 | HCT-116 | 4 µM, 24 h | relative to: control | oxygen consumption rate | 1.51 ± 1.74% |
| CC(=C/C(=O)O)/C=C/C=C(\C)C1C=C2C(C)(C)CCCC2(C)O1 (centres unmarked) | Rhodopsin (RHO, Homo sapiens, UniProt P08100, E181K) | immunostaining, measured: opsin | COS-7 transfected | 20.00 µM, unit not given | relative to: surface over total stained cells | plasma membrane localization | 0.87 |
| Nc1ncnc2c1ncn2[C@@H]1O[C@H](CO[P@](=O)(O)O[P@](=O)(O)O[P@@](=O)(O)S)[C@@H](O)[C@H]1O | GUK1 (Homo sapiens, UniProt Q16774) | ITC |  | molar ratio 3.736 |  | ΔH | -0.176 kcal/mol |
| CN1CCN(c2cc(-c3ccncc3)c(-c3ccc4ccccc4c3)nn2)CC1 | Glucagon receptor (GCGR, Homo sapiens, UniProt P47871) | agonist, FLIPR |  | 12.5 µM |  | activation | 10.6% |
| c1ccc(Oc2ccc(-c3cc(N4CCOCC4)n[nH]3)cc2)cc1 | GAP50 | binding, surface plasmon resonance |  | 1:1 binding model |  | koff | 1.14 s⁻¹ |
| NC(=O)NOCCCCCCCCCCCCCCCCCCCC[P+](c1ccccc1)(c1ccccc1)c1ccccc1.O=C([O-])C(F)(F)F | NADH dehydrogenase [ubiquinone] iron-sulfur protein 7, mitochondrial/NADH dehydrogenase [ubiquinone] iron-sulfur protein 2, mitochondrial/MT-ND1 | complex I-dependent respiration, Seahorse XF96 | HCT-116 | 0.3 µM, 24 h | relative to: control | oxygen consumption rate | 90.5 ± 3.66% |
| CCNC(=O)/C=C/c1cccc(Br)c1 | Sodium-dependent neutral amino acid transporter B(0)AT1 (SLC6A19, Homo sapiens, UniProt Q695T7) | inhibitor, FLIPR membrane potential | CHO-BC cells | 0.001 µM, unit not given | relative to: no inhibitor | remaining transport activity | 1.06 |
| NC(=O)NOCCCCCCCCCC[P+](c1ccccc1)(c1ccccc1)c1ccccc1.O=C([O-])C(F)(F)F | NADH dehydrogenase [ubiquinone] iron-sulfur protein 7, mitochondrial/NADH dehydrogenase [ubiquinone] iron-sulfur protein 2, mitochondrial/MT-ND1 | complex I-dependent respiration, Seahorse XF96 | HCT-116 | 20 µM, 24 h | relative to: control | oxygen consumption rate | 5.51 ± 10.1% |
| Cc1cccc(C(=O)NCc2ccc(CNS(=O)(=O)c3ccccc3)cc2)c1 | C-X-C chemokine receptor type 4 (CXCR4, Homo sapiens, UniProt P61073) | binding, inhibitor, competitive binding | MDA-MB-231 | together with: biotinylated TN14003 |  | EC | 1000 nM |
| CCNc1cc(=O)[nH]c(=O)[nH]1 | FFAR4 | agonist, β-arrestin recruitment | CHO cells | 10 µM |  | activation | 1% |
| Cc1ccccc1C(=O)N1NC(=Nc2ccccc2)SC1(C)C | GAP50 | binding, surface plasmon resonance |  | 1:1 binding model |  | kon | 3270 M⁻¹ s⁻¹ |
| Cc1ccc(CCNc2cc(=O)[nH]c(=O)[nH]2)cc1 | FFAR4 | agonist, β-arrestin recruitment | CHO cells | 10 µM |  | activation | 1 ± 1% |
| CC1=C(/C=C/C(C)=C/C=C/C(C)=C/C=O)C(C)(C)CCC1 | Rhodopsin (RHO, Bos taurus, UniProt P02699, I189T) | retinal release, Trp FRET | lipid bicelles | 28 °C, I189T mutant | relative to: wild-type rhodopsin | relative koff | 2.35 ± 0.7 |
| CC(C)CNc1cc(=O)[nH]c(=O)[nH]1 | FFAR4 | β-arrestin recruitment | CHO | 10 µM | relative to: 30 µM TUG-891 | agonist effect | 2 ± 1% |
| C[C@]12CCC(=O)C=C1CC[C@@H]1[C@@H]2[C@@H](O)C[C@@]2(C=O)[C@H]1CC[C@]2(O)C(=O)CO | Mineralocorticoid receptor (NR3C2, Homo sapiens, UniProt P08235) | reporter gene, agonist |  |  | relative to: baseline | maximal response | 25 fold |
